Measurements gathered from unrelated publications.
Each numbered part is a random draw from the data of one study; scales do not carry over between parts.

Series 1
Target: RNA binding protein fox-1 homolog 2, RRM domain, GST-SBP tag (RBFOX2, Homo sapiens, UniProt O43251-10, residues 100-194)
Method: RNA Bind-n-Seq
Molecule type: RNA
Medium: in vitro
Tested at: 365 nM
Notes: natural RNA segment, single round, ends assumed
Relative to: no-protein control
Direction: higher = stronger binding
All sequences stand within: GGGAGUUCUACAGUCCGACGAUC … UGGAAUUCUCGGGUGCCAA
Construct (chain): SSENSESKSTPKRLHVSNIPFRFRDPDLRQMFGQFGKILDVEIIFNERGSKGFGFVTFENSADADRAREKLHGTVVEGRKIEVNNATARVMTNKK
Under “RBNS enrichment (R)”, `UUAAUCUACCUCUGUCUCUUUAACCACGCUGUCUCUGGACUGAGUGUCAGGAGGGAAGAGGGGAGUCUACGCUCACAACCCAGGCACUGGACAGCUGCAGCCUGGCUAGG` is recorded as 0.231.
`UCAGCGAUUCUUUGACUGCGGACCCUGUGGGAAACCCCGUCAAUAAAUGUUAAAGACACACUCCGAGGCAGCGUGGAUGUGGUUUGCUUUCACUCAACAGUAUGGCCCGC` — result for “RBNS enrichment (R)”: 0.345.
For `CAGCACAGGCGCUGGCAGUGGAUACAGCAGGCCUGUCUAGUCUCCCACAGUGGGUUUGGCUGAUUGUAGCCCUGGGCUGUUUUGCCAUGGAACUCUCCAGUGUUCCUAUA`, “RBNS enrichment (R)” read 0.89.
`CUUUAUUAUCUUAGUAGUUUCAUGCUGUGUAUGUACCAUAACCAACCUAUUGCCUAUGAGAAACAUGUAAGAUAAUGUAUUUACAGCCAUUGUUACAAGUUUAUAAUGUA` — result for “RBNS enrichment (R)”: 0.677.
`UUAAAAAUAAUUUCUAUUCAAAAUACAUGCAUAAUUGAUUUUACACCUCAUUACUGGUGGAUAAUUUAUGUGAUGUGGAUUGCUGGUGUCCAGCAUGACCCAUAAACAGG` — result for “RBNS enrichment (R)”: 1.59.
Under “RBNS enrichment (R)”, `AUAGAGUAUAGCUCUGUAGUGGAAUAUGUCUUCUGUAUAACUAGGCUGUUAACCUAUGAUUGUAAAGUAGCUGUAAGAAUUUCCCAGUGAAAUAAAAAAAAAUUUUAAGU` is recorded as 0.881.
`UUUUAUUCCCUUUCCUCUCUCCCCUCCCCACCUCGCUUCUUCCCAAUUUAGUAACUUAGAUGCUUCCAGCACAUACGUAGGUAGCUACCCCAGCCGGUUUGGAUUACAGG` — result for “RBNS enrichment (R)”: 0.762.
`UGCUUAUACUGUGAUAUCUCAUCCUAGCUAAGCUCUAUAAUGCCCAAGACCCCAAACAGUACUUUUACUUUGUUUGUACAAAAACAAAGACAUAUAGCCAAUACAAAUCA`: “RBNS enrichment (R)” 0.373.
Under “RBNS enrichment (R)”, `GGAGCAAUUUGCACAUGUAACAUAGAUUUAUGUAAUGCUUUAUGUUUAAAAACAUUCCCCAAUUAUCUUAUUUAAUUUUUGCAAUUAUUCUAAUUUUAUAUAUAGAGAAA` is recorded as 1.24.
For `UGACCAAAAACAGUGCCAGUUAAAAACCACCGGGGAAACGUUUGCAGAUACGCUAGGUCUGCAGUUUGAUAUUUUGUAAAAUCCUCAAAAGCAAGGGAAGUGGCUACUUU`, “RBNS enrichment (R)” read 1.54.
Under “RBNS enrichment (R)”, `UUACCCCACCUGUCCUAUCAGGUGGGCCACACCCUGCUUGCCCACACCAGGGUCUGUCCUGGUCCUCAAGCCACGCACCCGCUAUGCCUGCACUGCAGCCCAGCCCCGGA` is recorded as 0.281.
For `AAUAACUAGCUGGGAAAAGACGAUGUAAUUAUUUCGGGGCUCUGCGGAACCUUCUCUGUACAGCGCCCCCUUUCUGUUGUGCUAUUGGUUGCAGCUGCCAUGCUCAGAAU`, “RBNS enrichment (R)” read 0.385.

Series 2
Target: Fragile X messenger ribonucleoprotein 1, C-terminal low-complexity region (Fmr1, Mus musculus, UniProt P35922)
Method: RNA Bind-n-Seq
Molecule type: RNA
Medium: in vitro
Tested at: 200 nM
Notes: whole 134-nt RNA, ends assumed
Together with: 150 mM KCl
Relative to: input library
Direction: higher = stronger binding
All sequences stand within: GGGAGUUCUACAGUCCGACGAUC … UGGAAUUCUCGGGUGUCAAGG
For `UCAAGUCCUGUGCUACACAUCGUAUGUACCGAAUCGGGGAAGGGAAGGGGAAGGGAAAGUAUUAUGUUACGCCGUUCGGAUCUGCACUUC`, the log2 enrichment was 0.745.
For `UGGCCCUGGUGACAUGCGGGGAGGAAGAGGUGGCCUCAUGGAUCGUGGUGGUCCCGGUGGAAUGUUCAGAGGUGGCCGUGGUGGAGACAG`, the log2 enrichment was -0.0815.
The log2 enrichment of `CAAGUCCUGUGCUACACAUCGUAUGUACCGAAUCGGGUUUGGGUGGGAAAAAGGGAAAGUAUUAUGUUACGCCGUUCGGAUCUGCACUUC` is reported as 1.02.
`CCUCAAGUCCUGUGCUACACAUCGUAUGUACCGAAUCGGUGGUGGUUUUUGGAAAGUAUUAUGUUACGCCGUUCGGAUCUGCACUUCCAG` has a log2 enrichment of 0.0951.
The log2 enrichment of `UUCCAUUGUGAACGUGCCUGGUGAGUCUACUCUUCGCCGAGAUUUCCUGAGACUGCAGCAGGAGAACAAGGAACGUUCCGAGGCUCUUCG` is reported as -1.83.
For `UAACUUUAGAGGAGGAUCUGAGGGAUAUGGCAGUGGACGUGGAUUUGGGGAUGGCUAUAAUGGGUAUGGAGGAGGACCUGGAGGUGGCAA`, the log2 enrichment was 0.34.
With `UAACUUUAGAGGAGGAUCUCAUGGAUAUGGCAGUGGACGUGGAUUUGGGGAUGGCUAUAAUGGGUAUGGAGGAGGACCUGGAGGUGGCAA` the log2 enrichment was 0.37.
The log2 enrichment of `UGUAGAAAAGGCACUGGACUAACACUUGGCUGUAUCUUGUAACAGGCAUGUUAUGUUACCCAGAGAACUUUCCAAACAAGUACCUAAAAC` is reported as -0.109.
The log2 enrichment of `CCUGUGCUACACAUCGUAUGUACCGAAUCGGGUUUUUUUGGGGUUUUUUUGGUUUUUUUGGAAAGUAUUAUGUUACGCCGUUCGGAUCUG` is reported as -0.609.
`AAGUCCUGUGCUACACAUCGUAUGUACCGAAUCGGCCCCGGGCCCCGGCCCCGGGGAAAGUAUUAUGUUACGCCGUUCGGAUCUGCACUU` has a log2 enrichment of -0.713.
For `CCUCAAGUCCUGUGCUACACAUCGUAUGUACCGAAUCGGGGUGGGGUGGGUGGAAAGUAUUAUGUUACGCCGUUCGGAUCUGCACUUCCA`, the log2 enrichment was 1.3.
With `UUAAGGGAAUCUAUUGCUGAACACAAACCUCAUAUUGACAAACUACUAAAGAUAGGCCCACAACUAAAGGAAUUAAACCCUGAGGAAGGG` the log2 enrichment was 0.0192.
`CAAGUCCUGUGCUACACAUCGUAUGUACCGAAUCGGGUUUGGGUGGGUUUUUGGGAAAGUAUUAUGUUACGCCGUUCGGAUCUGCACUUC` has a log2 enrichment of 1.03.
`UGAUCUCCAGGAUGACAUGCGAAGAUGCCAAAUCAUCCGAGACAUGAUUGGACCGGAAAAGACUUUGGUAAAUAUCCUCUCACACCACUA` has a log2 enrichment of -0.921.

Series 3
Target: Hepatocyte nuclear factor 3-alpha (Foxa1, Mus musculus, UniProt P35582, residues 1-468, full length assumed)
Method: EMSA with sequencing
Molecule type: double-stranded DNA, one strand shown
Medium: in vitro
Tested at: 10 and 20 nM
Notes: whole designed probe, mean of two concentrations, ends assumed
Relative to: negative control set to 0
Direction: higher = stronger binding
All sequences stand within: GTGAGCGGTGCCCATTGATGGGGAAC … TTTCACTGGGATCGTGGGGAC
Target sequence (chain): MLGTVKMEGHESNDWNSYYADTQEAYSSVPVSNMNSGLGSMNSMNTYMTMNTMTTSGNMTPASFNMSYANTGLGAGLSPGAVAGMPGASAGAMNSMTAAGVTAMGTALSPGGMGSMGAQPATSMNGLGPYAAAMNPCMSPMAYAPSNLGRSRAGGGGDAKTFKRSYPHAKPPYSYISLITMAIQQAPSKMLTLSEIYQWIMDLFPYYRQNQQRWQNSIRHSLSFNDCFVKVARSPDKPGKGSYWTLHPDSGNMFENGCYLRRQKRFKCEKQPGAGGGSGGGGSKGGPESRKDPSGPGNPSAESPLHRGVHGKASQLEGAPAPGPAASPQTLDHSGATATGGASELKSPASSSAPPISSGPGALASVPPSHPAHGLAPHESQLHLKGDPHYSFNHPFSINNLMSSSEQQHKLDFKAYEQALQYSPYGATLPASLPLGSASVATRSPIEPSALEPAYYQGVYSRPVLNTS
For `TCTCATTAAAACTTGGCAAATCTTTGGATCTGCTTAGAGACACTGAATGTATATAGAAGAATAACTATTATTATTTATGCTTATAAAATGTTTGTTTACATTGTTTTTCTGCCTTTCTATAACCGTCCTGTTGTCTTGGTGACACTGGTCTATTCCAAAAGGTTTTGCCCAACTCATGTAACTAATAAAGCAG`, “normalised bound fraction” read 0.486 ratio.
Under “normalised bound fraction”, `CATCACAGCCTATCCCTGACTGAATTAGTAAATGCATTTTCCATATGAATTTACAACTTATGTAGTAATTATCACATTTGCCAATGTTTGTCCTTGTTTACACATGAATGTTAGCTAAAACACTTTCGATTATTGCCAACATTAACCCATTAAAGATGTATTTGATTCTCAACAGTCAAAATAGAATTTGAGT` is recorded as 0.346 ratio.
`TTCCAAATACTCTTTTGAATTGAAAATGGTGAGAAGCGTAAATTATATGACACTGGAAACGTCTTTCCTATTTCATTTACGATCAAGAACTACTGTTTGCATTTGTATTATGTAGCTACTGTAGAAATTGACCAAATGTTGACAGACAAAAGGCACATGCACCCTGACAAGAGCCAAAACAAACAGGAAGGAA` — result for “normalised bound fraction”: 0.378 ratio.
`GCTCTTGCACCAAAGCTTCCTAAAGTTGGTGATTTATTTCTGACAAGTCTGCAAAACCTGAGACAGCATTTTTCTGGGTTGAACTCACACTTCGTGTTTACTGAAGTCTGAGTCACGGCCCTGCCTTGCTCACAGGCACGCCTGACTGTTCTTTACGCTGATACCAGTATGCAGGGCCAGCTCCCTCTACCAT` — result for “normalised bound fraction”: 0.0664 ratio.
For `TTAATAAAGCAGCAAGACCAGAGGTTGGGTTCTTGTATTGTTGCTTGAAGCAGTGTTAAAGATACACCGACATGACTAAAATGCATTGCTGAGTAATCTAGCACGGATTTTAAAGTTTAATATGATTAATGCAACTTGATGCCAAACTCTGAATGTCTCCTAAGGCTTCCAAGTTACTGAAAAGCAGCCAATA`, “normalised bound fraction” read -0.0667 ratio.
Under “normalised bound fraction”, `TAAGTTTGTCTTTTCTAATGAAGAAAAAAAAGAGTTTGAGAAAGGAACGATACCAATCTATGATGATCCATCAGCATCGCATCCCAGCCTGTGTAATCTTGAAGTGAAAGGGACAGGGAGAAGCCAGGGCCAGAAAGTGCATTTAAACCAGATGGTTCAGTCACAGCGCTGGCCTTAAGTGTCTTACCCAGCA` is recorded as -0.0484 ratio.
Under “normalised bound fraction”, `CACTAGCCAAGCAAATGCTACCTTTCCTAAATTACGCCGTGGTATTGTGTACGACAGCAGCAGGGTTGCTATTTTAAAATGGGATTGCGTAAAATAAACATGTGACAGGAAGTACCCAGATGCTAAGTTGATGATTAATTGATGCTCTGGTACGGCCTCGTGCTTTCCAGTGCTTCCATTTGTGTGACGATCC` is recorded as 0.258 ratio.
Under “normalised bound fraction”, `ATGTGGGAACTAATTGAGGACCATGTTTACAATGCGTACAAATCATAAATCAATTAGTTCATACAAGGAAGAAATTGATTTACAAAAAGTATTTGTTTACATTGATACTGTCCATGTAAACTTTTTTCAATTCAAAAGAAACACATAGTTCTGTCATAAAGTAGATTTTCTATCCCTTTTATTTTCTGAGCTT` is recorded as 0.409 ratio.

Series 4
Target: Histone acetyltransferase KAT6A, both winged helices, GST fusion (KAT6A, Homo sapiens, UniProt Q92794, residues 1-181)
Method: protein binding microarray
Molecule type: double-stranded DNA, one strand shown
Medium: in vitro
Tested at: not given
Notes: 8-mer, flanks averaged, mean of 2 arrays, mostly near background
Relative to: not given
Direction: higher = stronger binding
Construct (chain): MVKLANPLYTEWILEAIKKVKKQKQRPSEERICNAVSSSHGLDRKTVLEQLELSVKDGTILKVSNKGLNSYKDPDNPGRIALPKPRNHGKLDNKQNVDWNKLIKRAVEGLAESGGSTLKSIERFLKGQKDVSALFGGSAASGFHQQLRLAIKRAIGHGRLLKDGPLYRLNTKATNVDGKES
For `AAGTTGTG`, the E-score was -0.179.
For `CGATGCAC`, the E-score was -0.0682.
For `ACACTTTC`, the E-score was -0.0528.
For `CTTTCTGA`, the E-score was -0.139.
The E-score of `CAAGAAGG` is reported as -0.107.
`GCCCAACC` has an E-score of -0.0557.
The E-score of `CTGTGTCA` is reported as 0.0339.
For `AAATGGGT`, the E-score was -0.0564.
`GATTCGAC` gave an E-score of -0.169.
The E-score of `ACTGAACA` is reported as -0.0526.
For `ACTTTCCT`, the E-score was -0.151.
With `CCAATGCC` the E-score was -0.00106.
With `GTCACTCA` the E-score was -0.169.
With `ATCTCCAA` the E-score was -0.19.
For `AACTGCAA`, the E-score was -0.0527.
`CCTTCCCC` gave an E-score of -0.198.
For `CCGAAGAA`, the E-score was -0.0429.
With `AGAAGCGC` the E-score was 0.263.
With `CGATCGCC` the E-score was 0.311.
With `CAGCTCAA` the E-score was -0.207.
